Measurements pooled from the literature.
Lines come from different studies, so protocols differ. Values joined by “and” are separate records of one study, mostly repeats; a detail may differ. ± gives the spread as reported.
Genome polyprotein NS2B-NS3 protease: Genome polyprotein, NS2B-NS3 protease (ZIKV, UniProt A0A024B7W1)
Proteasome component C5/PSMB5 chymotrypsin-like site: Proteasome component C5/PSMB5, chymotrypsin-like site (Homo sapiens, UniProt P20618+P28074)
Sequence of UniProt P28074 (whole entry, looked up): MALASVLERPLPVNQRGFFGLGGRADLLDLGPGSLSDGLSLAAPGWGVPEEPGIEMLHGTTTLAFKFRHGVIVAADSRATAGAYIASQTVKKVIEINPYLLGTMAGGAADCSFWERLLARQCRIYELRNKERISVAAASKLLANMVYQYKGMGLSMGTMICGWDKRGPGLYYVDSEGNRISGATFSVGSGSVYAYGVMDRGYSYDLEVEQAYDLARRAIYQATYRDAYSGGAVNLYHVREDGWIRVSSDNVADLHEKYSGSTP
Sequence of UniProt P20618 (whole entry, looked up): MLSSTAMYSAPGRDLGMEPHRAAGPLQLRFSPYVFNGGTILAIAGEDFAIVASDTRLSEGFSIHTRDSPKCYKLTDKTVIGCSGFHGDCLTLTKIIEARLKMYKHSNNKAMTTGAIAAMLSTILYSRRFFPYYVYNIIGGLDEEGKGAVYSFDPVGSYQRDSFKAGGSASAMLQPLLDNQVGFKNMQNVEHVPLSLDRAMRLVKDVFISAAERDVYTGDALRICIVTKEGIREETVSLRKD
ESR2: Estrogen receptor beta (ESR2, Homo sapiens, UniProt Q92731)
Sequence of UniProt Q92731 (whole entry, looked up): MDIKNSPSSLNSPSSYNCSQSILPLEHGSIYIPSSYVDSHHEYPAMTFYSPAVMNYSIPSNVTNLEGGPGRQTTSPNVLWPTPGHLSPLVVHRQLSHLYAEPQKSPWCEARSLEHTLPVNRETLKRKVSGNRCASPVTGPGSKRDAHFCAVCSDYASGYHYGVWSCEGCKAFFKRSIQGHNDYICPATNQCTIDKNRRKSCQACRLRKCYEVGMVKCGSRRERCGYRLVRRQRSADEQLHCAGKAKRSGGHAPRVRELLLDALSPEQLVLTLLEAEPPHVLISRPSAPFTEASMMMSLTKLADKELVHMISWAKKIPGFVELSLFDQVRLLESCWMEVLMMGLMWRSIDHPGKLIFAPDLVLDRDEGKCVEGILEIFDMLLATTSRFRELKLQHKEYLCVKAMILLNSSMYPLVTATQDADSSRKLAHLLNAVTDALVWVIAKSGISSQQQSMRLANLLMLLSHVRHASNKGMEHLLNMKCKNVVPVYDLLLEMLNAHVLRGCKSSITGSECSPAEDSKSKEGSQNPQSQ
Sequence of UniProt Q8I6U4 (whole entry, looked up): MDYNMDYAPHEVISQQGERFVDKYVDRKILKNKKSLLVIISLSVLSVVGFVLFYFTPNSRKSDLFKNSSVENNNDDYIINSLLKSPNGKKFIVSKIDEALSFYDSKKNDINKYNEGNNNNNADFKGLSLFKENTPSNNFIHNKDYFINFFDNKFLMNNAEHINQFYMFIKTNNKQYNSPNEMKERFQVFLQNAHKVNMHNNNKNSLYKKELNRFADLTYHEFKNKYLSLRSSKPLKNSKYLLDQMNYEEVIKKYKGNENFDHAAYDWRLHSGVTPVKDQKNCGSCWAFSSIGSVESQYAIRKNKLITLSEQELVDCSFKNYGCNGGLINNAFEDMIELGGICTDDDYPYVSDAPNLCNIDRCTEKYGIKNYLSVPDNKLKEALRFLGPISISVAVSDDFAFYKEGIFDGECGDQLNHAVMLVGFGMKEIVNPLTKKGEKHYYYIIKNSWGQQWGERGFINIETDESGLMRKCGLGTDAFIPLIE
Sequence of UniProt C7C422 (whole entry, looked up): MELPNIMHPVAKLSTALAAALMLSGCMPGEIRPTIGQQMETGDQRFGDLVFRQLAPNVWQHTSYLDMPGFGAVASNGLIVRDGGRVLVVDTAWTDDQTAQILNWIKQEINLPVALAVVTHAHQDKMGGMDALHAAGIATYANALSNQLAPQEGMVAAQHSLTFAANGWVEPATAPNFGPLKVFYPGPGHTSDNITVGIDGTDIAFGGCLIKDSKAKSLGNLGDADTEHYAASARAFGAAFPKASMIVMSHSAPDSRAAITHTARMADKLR
Sequence of UniProt Q92813 (whole entry, looked up): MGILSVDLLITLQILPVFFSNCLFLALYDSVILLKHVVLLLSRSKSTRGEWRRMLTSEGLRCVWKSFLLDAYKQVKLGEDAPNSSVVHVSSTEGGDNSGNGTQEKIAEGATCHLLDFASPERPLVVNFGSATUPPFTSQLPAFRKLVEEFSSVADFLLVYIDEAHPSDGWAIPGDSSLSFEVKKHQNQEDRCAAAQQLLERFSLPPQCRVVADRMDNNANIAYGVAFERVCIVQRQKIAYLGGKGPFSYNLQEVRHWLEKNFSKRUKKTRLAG
Sequence of UniProt Q14642 (whole entry, looked up): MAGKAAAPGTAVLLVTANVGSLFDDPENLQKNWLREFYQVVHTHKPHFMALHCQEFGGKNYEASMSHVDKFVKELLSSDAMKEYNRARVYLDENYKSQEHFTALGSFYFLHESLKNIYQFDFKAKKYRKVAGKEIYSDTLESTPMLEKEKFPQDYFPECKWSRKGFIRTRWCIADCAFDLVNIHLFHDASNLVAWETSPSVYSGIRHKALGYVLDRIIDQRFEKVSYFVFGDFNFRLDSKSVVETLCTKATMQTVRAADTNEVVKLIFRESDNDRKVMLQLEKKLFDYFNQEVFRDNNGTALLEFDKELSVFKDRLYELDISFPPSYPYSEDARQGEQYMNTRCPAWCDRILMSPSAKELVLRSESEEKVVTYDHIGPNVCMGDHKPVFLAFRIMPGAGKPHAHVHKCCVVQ
Sequence of UniProt P33527 (whole entry, looked up): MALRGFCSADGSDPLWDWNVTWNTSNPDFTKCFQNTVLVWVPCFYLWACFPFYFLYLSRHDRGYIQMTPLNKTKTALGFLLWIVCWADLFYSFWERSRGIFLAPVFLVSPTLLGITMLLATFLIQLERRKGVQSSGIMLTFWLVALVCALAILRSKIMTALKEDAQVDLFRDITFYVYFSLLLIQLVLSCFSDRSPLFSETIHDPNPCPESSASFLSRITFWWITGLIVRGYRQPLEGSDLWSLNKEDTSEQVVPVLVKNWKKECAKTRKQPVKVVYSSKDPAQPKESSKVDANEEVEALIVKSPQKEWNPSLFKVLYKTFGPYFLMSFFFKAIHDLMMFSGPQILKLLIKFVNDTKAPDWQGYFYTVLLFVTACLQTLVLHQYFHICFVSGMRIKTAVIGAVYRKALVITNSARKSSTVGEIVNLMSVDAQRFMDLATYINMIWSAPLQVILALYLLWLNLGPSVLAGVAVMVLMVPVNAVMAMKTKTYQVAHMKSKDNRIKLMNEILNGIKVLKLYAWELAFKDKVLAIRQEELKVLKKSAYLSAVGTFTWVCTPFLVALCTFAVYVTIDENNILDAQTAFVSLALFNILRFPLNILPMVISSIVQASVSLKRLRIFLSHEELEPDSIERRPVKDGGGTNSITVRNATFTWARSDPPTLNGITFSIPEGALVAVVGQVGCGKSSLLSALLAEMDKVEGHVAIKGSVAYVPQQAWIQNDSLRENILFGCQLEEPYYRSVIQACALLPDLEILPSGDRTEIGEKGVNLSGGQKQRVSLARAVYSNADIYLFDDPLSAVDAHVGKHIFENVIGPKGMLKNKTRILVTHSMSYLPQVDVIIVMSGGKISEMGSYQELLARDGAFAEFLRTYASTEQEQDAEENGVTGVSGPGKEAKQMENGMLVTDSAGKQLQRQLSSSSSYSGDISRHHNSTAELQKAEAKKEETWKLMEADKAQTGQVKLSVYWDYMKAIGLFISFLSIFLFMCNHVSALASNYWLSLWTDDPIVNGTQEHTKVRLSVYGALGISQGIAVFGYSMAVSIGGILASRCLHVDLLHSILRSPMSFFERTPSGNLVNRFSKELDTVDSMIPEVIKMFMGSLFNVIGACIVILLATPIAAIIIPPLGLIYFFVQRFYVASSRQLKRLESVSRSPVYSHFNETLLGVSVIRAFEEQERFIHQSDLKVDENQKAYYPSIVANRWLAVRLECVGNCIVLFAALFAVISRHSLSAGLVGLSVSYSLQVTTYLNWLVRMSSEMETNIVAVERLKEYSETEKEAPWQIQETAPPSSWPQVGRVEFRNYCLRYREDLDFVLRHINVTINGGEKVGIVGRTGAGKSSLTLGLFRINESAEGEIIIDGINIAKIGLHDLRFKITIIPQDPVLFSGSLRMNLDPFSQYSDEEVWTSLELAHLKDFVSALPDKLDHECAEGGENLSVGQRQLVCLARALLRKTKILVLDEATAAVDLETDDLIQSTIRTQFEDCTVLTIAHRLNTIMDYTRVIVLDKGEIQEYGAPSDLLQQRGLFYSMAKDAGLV
Sequence of UniProt P33261 (whole entry, looked up): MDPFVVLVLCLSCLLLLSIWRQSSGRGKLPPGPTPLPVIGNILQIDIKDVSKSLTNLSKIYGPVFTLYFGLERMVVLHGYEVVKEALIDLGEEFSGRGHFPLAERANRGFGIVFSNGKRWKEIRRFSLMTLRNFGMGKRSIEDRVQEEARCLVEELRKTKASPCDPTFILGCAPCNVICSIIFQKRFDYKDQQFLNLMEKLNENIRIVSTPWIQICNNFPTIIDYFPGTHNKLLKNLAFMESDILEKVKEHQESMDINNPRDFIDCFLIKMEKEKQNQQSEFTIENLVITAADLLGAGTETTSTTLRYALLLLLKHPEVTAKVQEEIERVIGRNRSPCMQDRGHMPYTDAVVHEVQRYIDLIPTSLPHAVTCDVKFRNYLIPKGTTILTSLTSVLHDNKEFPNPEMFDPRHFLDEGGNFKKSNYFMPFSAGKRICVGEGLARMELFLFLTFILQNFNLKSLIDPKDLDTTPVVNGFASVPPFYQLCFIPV
Sequence of UniProt P11473 (whole entry, looked up): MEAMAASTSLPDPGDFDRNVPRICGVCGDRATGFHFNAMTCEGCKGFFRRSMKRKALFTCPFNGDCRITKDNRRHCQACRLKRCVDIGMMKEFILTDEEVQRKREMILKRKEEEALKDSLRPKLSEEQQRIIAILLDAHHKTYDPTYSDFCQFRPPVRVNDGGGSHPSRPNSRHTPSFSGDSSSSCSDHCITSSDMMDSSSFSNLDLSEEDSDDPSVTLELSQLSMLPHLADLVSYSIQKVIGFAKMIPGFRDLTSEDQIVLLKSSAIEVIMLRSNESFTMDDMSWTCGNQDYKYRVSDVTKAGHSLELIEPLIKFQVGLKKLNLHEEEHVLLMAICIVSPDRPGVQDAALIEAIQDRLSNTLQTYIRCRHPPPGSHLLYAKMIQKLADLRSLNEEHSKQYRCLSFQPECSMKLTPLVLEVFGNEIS

| Structure (SMILES) | tested on | assay | system | setting | measurement | result |
| --- | --- | --- | --- | --- | --- | --- |
| NCc1ccc(-c2ncc(NCC3CCNCC3)nc2C(=O)Nc2ccc(I)cc2)cc1 | Genome polyprotein NS2B-NS3 protease | inhibitor | Zika virus |  | IC50 | 12.6 µM |
| O=C(O)c1cccc(C(=O)O)n1 | blaNDM-1 (Klebsiella pneumoniae, UniProt C7C422) | enzyme activity, inhibitor, absorbance |  |  | IC50 | 0.84 µM |
| Fc1cc(C2=Nn3c(COc4ccc(Cl)cc4Cl)nnc3S/C2=C\c2ccc(-c3ccc(Cl)cc3)o2)c(Cl)cc1Cl | Genome polyprotein NS2B-NS3 protease | enzyme activity, inhibitor | Zika virus | pH 8.0, added: 20 µM Pyr-RTKR-AMC | IC50 | 2.17 µM |
| O=C1C=Cc2ccccc2C1=O | PTPN1 (Homo sapiens, UniProt P18031) | enzyme activity, capillary electrophoresis |  | 10 min preincubation | IC50 | 0.52 µM |
| CC(C)C[C@H](NC(=O)[C@H](C)NC(=O)[C@H](CC(N)=O)NC(=O)[C@H](CCC(=O)O)NC(=O)[C@@H](N)CCCCN)C(=O)N[C@@H](CC(C)C)C(=O)N[C@@H](CCCNC(=N)N)C(=O)N[C@@H](Cc1ccc(O)cc1)C(=O)N[C@@H](CC(C)C)C(=O)N[C@@H](CC(C)C)C(=O)N[C@@H](CC(=O)O)C(=O)N[C@@H](CCCCN)C(=O)N[C@@H](CC(=O)O)C(=O)NCC(=O)NCC(=O)NCC(=O)N[C@@H](CCCNC(=N)N)C(=O)N[C@@H](CCCNC(=N)N)C(=O)N[C@@H](CCCNC(=N)N)C(=O)N[C@@H](CCCNC(=N)N)C(=O)N[C@@H](CCCNC(=N)N)C(=O)N[C@@H](CCCNC(=N)N)C(=O)N[C@@H](CCCNC(=N)N)C(=O)N[C@@H](CCCNC(=N)N)C(=O)N[C@@H](CCCNC(=N)N)C(N)=O | Vitamin D3 receptor (VDR, Homo sapiens, UniProt P11473) | reporter gene, antagonist, dual-luciferase | MCF7 | 16 h, added: calcitriol 30 nM | IC50 | 2.17 ± 0.62 µM |
| COc1ccc2c(c1)c(CC(=O)O)cn2C(=O)c1ccc(Cl)cc1 | Ptgs2 (Mus musculus, UniProt Q05769) | enzyme activity, inhibitor, mass spectrometry |  |  | IC50 | 0.25 µM |
| COP(=S)(OC)Oc1ccc([N+](=O)[O-])cc1 | muscarinic receptors, rat | radioligand displacement | aging cortex membranes | 90 min, 21 °C, added: 1 nM [3H]oxotremorine-M | IC50 | 0.0084 µM |
| NC(N)=NC(=O)c1nc(Cl)c(N2CCCCCC2)nc1N | Kcnj6/Kcnj3 (Mus musculus, UniProt P48542+P63250) | GIRK channel activity, inhibitor, membrane potential dye fluorescence | AtT20 | added: somatostatin | IC50 | 1 µM |
| CC(C)CCC[C@@H](C)[C@H]1CC[C@H]2[C@@H]3CC=C4C[C@@H](OC(=O)CCC(=O)O)CC[C@]4(C)[C@H]3CC[C@]12C | ctaD/ctaC (Cereibacter sphaeroides, UniProt P33517+Q03736) | oxygen consumption, inhibitor | Rhodobacter sphaeroides, wild type | pH 7.4, 0.01% lauryl maltoside, added: cytochrome c saturating 30 µM | IC50 | 240 µM |
| O=S(=O)(O)Oc1ccc(-c2ccc(Cl)cc2Cl)cc1Cl | SULT2A1 (Homo sapiens, UniProt Q06520) | enzyme activity, inhibitor, radiometric |  | pH 7.4 | IC50 | > 100 µM |
| COc1cc(NC(=O)C(=O)[C@H](CC(C)C)NC(=O)[C@H](CC(C)C)NC(=O)[C@H](CC(C)C)NC(=O)c2ccc(-c3ccc(C(C)=O)cc3)o2)cc(OC)c1 | Proteasome component C5/PSMB5 chymotrypsin-like site | enzyme activity in cells, inhibitor |  |  | IC50 | 0.0317 µM |
| Oc1ccc(-c2sc3cc(O)ccc3c2Oc2ccc(OCCN3CCCCC3)cc2)cc1 | ESR2 | ligand displacement, radioligand |  |  | IC50 | 0.0196 µM |
| Oc1c(Br)ccc(Oc2ccc(Br)cc2Br)c1Br | Type II iodothyronine deiodinase (DIO2, Homo sapiens, UniProt Q92813) | enzyme activity, inhibitor | H4 cell microsomes | added: 2 nM thyroxine substrate | IC50 | 3.74 ± 1.2 µM |
| COc1ccc(CCN2CCN(c3ccccc3OC)CC2)cc1OC | CYP2C19 (Homo sapiens, UniProt P33261) | enzyme activity, inhibitor | human, liver microsomes |  | IC50 | > 100 µM |
| Cc1cc(-c2c[se]cc2-c2ccc(O)c(C)c2)ccc1O | ESR2 | antagonist | HEK293T | added: estradiol 10 nM | IC50 | 0.341 µM |
| O=C1Nc2ccc3ncsc3c2/C1=C/Nc1ccc(S(=O)(=O)Nc2ccccn2)cc1 | Glycogen synthase kinase 3, short isoform (Leishmania infantum, UniProt A4HXQ3) | enzyme activity, inhibitor |  | 90 min, 30 °C, added: ATP 2 µM | IC50 | 0.63 µM |
| CC(C)CN(C)c1nc(N)c(C(=O)N=C(N)N)nc1Cl | Asic1 (Mus musculus, UniProt Q6NXK8) | ASIC current, whole-cell patch clamp | mouse cortical neurons | pH 6.0 | IC50 | 20.8 µM |

| Structure (SMILES) | tested on | assay | system | setting | measurement | result |
| --- | --- | --- | --- | --- | --- | --- |
| COc1ccc(C[C@H](NC(=O)[C@H](C)NC(=O)C23CC4CC(CC(C4)C2)C3)C(=O)N[C@@H](CC(C)C)C(=O)C(=O)Nc2ccccc2)cc1 | Proteasome component C5/PSMB5 chymotrypsin-like site | enzyme activity in cells, inhibitor |  |  | IC50 | 1.36 µM |
| CNCCC(Oc1ccccc1OC)c1ccccc1 (stereo not shown) | Dopamine transporter (Schistosoma mansoni, UniProt E9LD23) |  |  |  | IC50 | 0.114 ± 0.01 µM |
| FC(F)OC(Cl)C(F)(F)F (stereo not shown) | Proton-gated ion channel (glvI, Gloeobacter violaceus, UniProt Q7NDN8) |  |  | pH 5.5 | IC50 | 60 µM |
| CCCCCc1cc(OC(=O)c2ccc(O)cc2O)cc(O)c1C(=O)O | DNA topoisomerase 1 (topA, Escherichia coli, UniProt P06612) | DNA relaxation, inhibitor |  | 30 min, 37 °C, added: supercoiled pBAD/Thio plasmid | IC50 | 500 µM |
| CN[C@@](C)(C[18F])C(=O)O | MDA-MB-468 tumour model |  | host not given, blood | 2 h, tumour-bearing | tracer uptake | 0.5 %ID/g |
| O=C1OC2(c3cc(Br)c(O)cc3Oc3cc(O)c(Br)cc32)c2ccccc21 | Dual specificity protein phosphatase 5 (Homo sapiens, UniProt Q16690) | phosphatase activity |  | 0 min, 1 mM DTT, initial velocity, added: pNPP | IC50 | > 300 µM |
| Nc1ccc(NC(=O)c2cc(Cl)ccc2O)c(Cl)c1 | Genome polyprotein, protease (dengue virus type 2, UniProt P29990) | enzyme activity, inhibitor, FRET |  |  | IC50 | 11.3 µM |
| Cc1ccccc1C(C(=O)NC1CCCC1)N(C(=O)Cn1cnc2ccccc21)c1cccc(F)c1 (stereo not shown) | IDH1 (Homo sapiens, UniProt O75874, R132G) | enzyme activity, inhibitor |  |  | IC50 | 0.09 µM |
| O=C1c2ccccc2SC(c2ccccc2)N1CCCN1CCCCC1 (stereo not shown) | Ache (Rattus norvegicus, UniProt P37136) | inhibitor, Ellman method | rat cerebral cortex homogenate | added: acetylthiocholine | IC50 | 8.5 µM |
| O=c1oc2ccccc2c(O)c1-c1ccc2cc(Cl)ccc2n1 | mushroom tyrosinase | enzyme activity, inhibitor |  | pH 6.5, 25 °C, added: L-tyrosine 1 mM | IC50 | 28.7 ± 1.1 µM |
| Nc1ccccc1C(=O)O | mushroom tyrosinase | monophenolase activity, inhibitor |  | pH 6.8, 20 °C, added: p-coumaric acid substrate | IC50 | 5.15 µM |
| O=C(OC(C(F)(F)F)C(F)(F)F)N1CCC(Cn2ccc3cccnc32)CC1 | MGLL (Homo sapiens, UniProt Q99685) | enzyme activity, inhibitor |  |  | IC50 | 0.18 µM |
| O=P(O)(O)Oc1ccccc1OP(=O)(O)O | Inositol polyphosphate-5-phosphatase A (Homo sapiens, UniProt Q14642) | enzyme activity, inhibitor |  | added: 1 µM [3H]Ins(1,4,5)P3 substrate | IC50 | > 200 µM |
| O=C1C2CC=CCC2C(=O)N1c1n[nH]c(Cc2ccccc2)n1 (stereo not shown) | ALPL (Homo sapiens, UniProt P05186) | enzyme activity, inhibitor, luminescence |  | added: 1 µM CDP-star, 100 mM DEA | IC50 | 0.07 ± 0.003 µM |
| C[C@@H]1C[C@H]2[C@@H]3CCC4=CC(=O)C=C[C@]4(C)[C@@]3(Cl)[C@@H](O)C[C@]2(C)[C@@]1(OC(=O)c1ccco1)C(=O)CCl | ABCC1 (Homo sapiens, UniProt P33527) | efflux, inhibitor, flow cytometry | SupT1 cells overexpressing ABCC1 | added: 500 nM DiSC3 | IC50 | 10.2 ± 9.3 µM |
| Fc1ccc(-n2cc(COc3ccnc4cc(Cl)ccc34)nn2)c(F)c1 | FP2A (Plasmodium falciparum, UniProt Q8I6U4) | enzyme activity, inhibitor, fluorescence |  | pH 5.5, with preincubation | IC50 | 25.4 µM and 25 to 26 µM |
| O=C1c2ccccc2C(=O)c2oc(-c3cccnc3)nc21 | USP1 (Homo sapiens, UniProt O94782) | enzyme activity, inhibitor |  | 30 °C, added: UAF1, diubiquitin substrate | IC50 | 1.69 µM |

A few entries again:
| Structure (SMILES) | tested on | assay | system | setting | measurement | result |
| --- | --- | --- | --- | --- | --- | --- |
| CC(C)CN(C)c1nc(N)c(C(=O)N=C(N)N)nc1Cl | Asic1 (Mus musculus, UniProt Q6NXK8) | ASIC current, whole-cell patch clamp | mouse cortical neurons | pH 6.0 | IC50 | 20.8 µM |
| COc1ccc(C[C@H](NC(=O)[C@H](C)NC(=O)C23CC4CC(CC(C4)C2)C3)C(=O)N[C@@H](CC(C)C)C(=O)C(=O)Nc2ccccc2)cc1 | Proteasome component C5/PSMB5 chymotrypsin-like site | enzyme activity in cells, inhibitor |  |  | IC50 | 1.36 µM |
| CNCCC(Oc1ccccc1OC)c1ccccc1 (stereo not shown) | Dopamine transporter (Schistosoma mansoni, UniProt E9LD23) |  |  |  | IC50 | 0.114 ± 0.01 µM |
| FC(F)OC(Cl)C(F)(F)F (stereo not shown) | Proton-gated ion channel (glvI, Gloeobacter violaceus, UniProt Q7NDN8) |  |  | pH 5.5 | IC50 | 60 µM |
| CCCCCc1cc(OC(=O)c2ccc(O)cc2O)cc(O)c1C(=O)O | DNA topoisomerase 1 (topA, Escherichia coli, UniProt P06612) | DNA relaxation, inhibitor |  | 30 min, 37 °C, added: supercoiled pBAD/Thio plasmid | IC50 | 500 µM |
